# Measurements collected from several papers.
# Each line is one published result; not all experiments were run side by side.
# Target: Mitogen-activated protein kinase 10 (MAPK10, Homo sapiens, UniProt P53779)
# Sequence of UniProt P53779 (whole entry, looked up): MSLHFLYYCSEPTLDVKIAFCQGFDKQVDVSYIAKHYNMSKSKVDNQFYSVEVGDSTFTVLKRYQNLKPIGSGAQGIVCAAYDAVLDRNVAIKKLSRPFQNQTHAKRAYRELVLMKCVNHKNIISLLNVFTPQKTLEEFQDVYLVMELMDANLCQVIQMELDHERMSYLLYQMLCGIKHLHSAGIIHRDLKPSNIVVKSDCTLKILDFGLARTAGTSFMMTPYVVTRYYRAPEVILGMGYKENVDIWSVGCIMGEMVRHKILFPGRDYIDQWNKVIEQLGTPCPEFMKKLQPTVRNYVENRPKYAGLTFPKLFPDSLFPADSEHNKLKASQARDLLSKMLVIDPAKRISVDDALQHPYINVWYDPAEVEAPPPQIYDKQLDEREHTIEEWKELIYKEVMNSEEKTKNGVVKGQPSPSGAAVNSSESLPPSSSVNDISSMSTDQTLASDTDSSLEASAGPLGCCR
Structure (SMILES),test,conditions,how to read,quantity,value
Cc1cc(Nc2cc(N3CCN(C)CC3)nc(Sc3ccc(NC(=O)C4CC4)cc3)n2)[nH]n1,"kinase activity, KinaseProfiler","0.03 µM, species human",baseline: control,remaining activity,105%
COc1cc(F)ccc1-c1ncnc(Nc2cccc(C[S@](C)(=N)=O)c2)n1,kinase activity,"10 µM, together with: 10 µM ATP",,remaining activity,58%
C[C@@H](c1ccc(-n2cnc3c(N)ncnc32)cc1)N1CCc2nn(C)c(Cc3ccccc3)c2C1=O,KINOMEscan,0.1 µM,baseline: DMSO control,remaining binding,60%
O=C(NC1CCC1)c1ccc2nc(-c3cccc(NS(=O)(=O)NCCN4CCCCC4)c3)cn2c1,enzyme activity,10 µM,,remaining activity,93%
Cc1nc(NC(=O)N2CCC[C@H]2C(N)=O)sc1-c1ccnc(C(C)(C)C(F)(F)F)c1,KINOMEscan,10 µM,,remaining binding,59%
CCN(CC)c1ccc(C2=NNC(=O)CC2C)cc1[N+](=O)[O-] (stereo not shown),"enzyme activity, inhibitor",10 µM,baseline: vehicle,remaining activity,91%
C1=C/COCc2cc(ccc2OCCN2CCCC2)Nc2nccc(n2)-c2cccc(c2)COC/1,,"concentration not given, kinase construct JNK3",baseline: control,binding,33%
O=C1NC(=O)/C(=C/c2ccc(-c3ccc(F)cc3O)o2)S1,enzyme activity,10 µM,,remaining activity,90%
CCCOc1ccc(OC)c(F)c1C(=O)c1ccc(C(=O)N[C@@H]2CNC[C@H]2NC(=O)c2ccc3[nH]ncc3c2)cc1,enzyme activity,10 µM,,remaining activity,72%
C=CC(=O)N1CCC(COCC(=O)N2CCN(c3nc(-c4cnc(N)nc4C(F)F)nc(N4CCOC[C@@H]4C)n3)CC2)CC1,KINOMEscan,1 µM,baseline: DMSO control,remaining binding,80%
